{"data": "Experimental data collected from several papers", "note": "A part holds a random share of what one study measured. “And” joins repeats or separate records; there may be more than shown.", "UniProt Q15375, sequence (whole entry, looked up)": "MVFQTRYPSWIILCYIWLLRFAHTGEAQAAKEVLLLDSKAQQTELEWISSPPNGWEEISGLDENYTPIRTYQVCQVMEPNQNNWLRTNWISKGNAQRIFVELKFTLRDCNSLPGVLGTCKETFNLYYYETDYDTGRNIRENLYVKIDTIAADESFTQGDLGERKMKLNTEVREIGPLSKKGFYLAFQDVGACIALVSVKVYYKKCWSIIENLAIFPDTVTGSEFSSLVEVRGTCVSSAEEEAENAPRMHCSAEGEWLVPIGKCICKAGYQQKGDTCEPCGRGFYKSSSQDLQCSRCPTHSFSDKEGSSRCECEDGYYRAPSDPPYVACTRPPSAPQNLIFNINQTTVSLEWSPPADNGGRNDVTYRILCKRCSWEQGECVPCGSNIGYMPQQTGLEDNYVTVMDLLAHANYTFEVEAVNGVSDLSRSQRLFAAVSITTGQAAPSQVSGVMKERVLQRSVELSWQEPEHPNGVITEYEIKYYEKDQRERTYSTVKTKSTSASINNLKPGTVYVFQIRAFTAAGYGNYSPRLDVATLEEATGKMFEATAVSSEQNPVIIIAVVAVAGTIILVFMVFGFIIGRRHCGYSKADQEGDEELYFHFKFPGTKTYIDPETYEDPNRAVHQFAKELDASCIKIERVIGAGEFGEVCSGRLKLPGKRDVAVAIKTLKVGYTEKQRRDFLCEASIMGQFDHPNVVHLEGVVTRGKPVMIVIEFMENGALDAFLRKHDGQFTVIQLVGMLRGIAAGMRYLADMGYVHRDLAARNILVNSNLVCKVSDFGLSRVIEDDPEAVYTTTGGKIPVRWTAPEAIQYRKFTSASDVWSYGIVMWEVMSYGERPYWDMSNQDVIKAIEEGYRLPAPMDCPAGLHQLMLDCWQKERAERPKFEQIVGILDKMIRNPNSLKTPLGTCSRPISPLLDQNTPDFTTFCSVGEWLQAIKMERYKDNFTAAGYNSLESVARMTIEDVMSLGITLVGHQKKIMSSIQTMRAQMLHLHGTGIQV", "UniProt O75716, sequence (whole entry, looked up)": "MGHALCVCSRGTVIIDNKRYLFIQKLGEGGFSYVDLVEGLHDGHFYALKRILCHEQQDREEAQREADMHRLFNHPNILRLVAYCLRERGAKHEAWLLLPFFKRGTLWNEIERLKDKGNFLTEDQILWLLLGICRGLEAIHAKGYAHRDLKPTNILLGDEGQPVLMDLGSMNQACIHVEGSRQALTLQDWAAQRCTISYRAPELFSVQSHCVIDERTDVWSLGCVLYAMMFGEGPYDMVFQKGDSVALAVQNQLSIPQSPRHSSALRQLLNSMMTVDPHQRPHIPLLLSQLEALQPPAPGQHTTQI", "UniProt Q02750, sequence (whole entry, looked up)": "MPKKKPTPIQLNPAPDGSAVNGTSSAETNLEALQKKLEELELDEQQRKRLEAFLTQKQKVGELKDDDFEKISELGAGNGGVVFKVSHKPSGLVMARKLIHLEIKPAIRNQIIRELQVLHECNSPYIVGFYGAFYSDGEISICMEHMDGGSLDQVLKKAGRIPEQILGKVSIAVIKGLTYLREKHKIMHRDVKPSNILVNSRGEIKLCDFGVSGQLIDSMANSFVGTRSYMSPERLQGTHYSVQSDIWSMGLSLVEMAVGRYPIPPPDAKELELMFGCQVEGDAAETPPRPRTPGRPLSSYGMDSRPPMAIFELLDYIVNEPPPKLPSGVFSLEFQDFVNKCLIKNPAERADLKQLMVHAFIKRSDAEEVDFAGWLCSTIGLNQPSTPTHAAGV", "UniProt P52564, sequence (whole entry, looked up)": "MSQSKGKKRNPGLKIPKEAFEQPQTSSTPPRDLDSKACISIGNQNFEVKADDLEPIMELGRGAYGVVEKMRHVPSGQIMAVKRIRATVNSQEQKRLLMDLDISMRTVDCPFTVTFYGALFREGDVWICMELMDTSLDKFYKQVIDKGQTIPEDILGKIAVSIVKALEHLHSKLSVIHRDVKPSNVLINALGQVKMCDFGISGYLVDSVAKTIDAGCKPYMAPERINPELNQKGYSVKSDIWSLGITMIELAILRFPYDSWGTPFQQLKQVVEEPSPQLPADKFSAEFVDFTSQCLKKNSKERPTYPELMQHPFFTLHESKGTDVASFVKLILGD", "UniProt Q13546, sequence (whole entry, looked up)": "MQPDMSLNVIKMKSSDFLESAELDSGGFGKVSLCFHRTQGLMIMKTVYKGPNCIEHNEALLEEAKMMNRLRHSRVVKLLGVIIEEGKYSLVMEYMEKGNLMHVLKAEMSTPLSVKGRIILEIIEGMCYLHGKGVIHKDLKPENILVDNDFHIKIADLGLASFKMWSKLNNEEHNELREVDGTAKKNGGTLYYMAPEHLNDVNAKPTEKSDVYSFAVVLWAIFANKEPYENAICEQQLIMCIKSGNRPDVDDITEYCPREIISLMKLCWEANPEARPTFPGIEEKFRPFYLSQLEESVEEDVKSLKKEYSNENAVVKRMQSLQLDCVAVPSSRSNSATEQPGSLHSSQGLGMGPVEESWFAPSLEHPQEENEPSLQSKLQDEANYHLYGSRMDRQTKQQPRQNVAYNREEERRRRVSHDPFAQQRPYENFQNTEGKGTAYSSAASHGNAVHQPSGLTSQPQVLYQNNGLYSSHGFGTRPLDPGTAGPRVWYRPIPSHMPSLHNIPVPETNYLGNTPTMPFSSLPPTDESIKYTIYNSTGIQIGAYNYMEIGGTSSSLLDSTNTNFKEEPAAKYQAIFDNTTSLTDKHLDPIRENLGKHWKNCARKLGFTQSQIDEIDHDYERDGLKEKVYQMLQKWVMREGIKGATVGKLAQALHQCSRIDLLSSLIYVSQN", "UniProt Q05655, sequence (whole entry, looked up)": "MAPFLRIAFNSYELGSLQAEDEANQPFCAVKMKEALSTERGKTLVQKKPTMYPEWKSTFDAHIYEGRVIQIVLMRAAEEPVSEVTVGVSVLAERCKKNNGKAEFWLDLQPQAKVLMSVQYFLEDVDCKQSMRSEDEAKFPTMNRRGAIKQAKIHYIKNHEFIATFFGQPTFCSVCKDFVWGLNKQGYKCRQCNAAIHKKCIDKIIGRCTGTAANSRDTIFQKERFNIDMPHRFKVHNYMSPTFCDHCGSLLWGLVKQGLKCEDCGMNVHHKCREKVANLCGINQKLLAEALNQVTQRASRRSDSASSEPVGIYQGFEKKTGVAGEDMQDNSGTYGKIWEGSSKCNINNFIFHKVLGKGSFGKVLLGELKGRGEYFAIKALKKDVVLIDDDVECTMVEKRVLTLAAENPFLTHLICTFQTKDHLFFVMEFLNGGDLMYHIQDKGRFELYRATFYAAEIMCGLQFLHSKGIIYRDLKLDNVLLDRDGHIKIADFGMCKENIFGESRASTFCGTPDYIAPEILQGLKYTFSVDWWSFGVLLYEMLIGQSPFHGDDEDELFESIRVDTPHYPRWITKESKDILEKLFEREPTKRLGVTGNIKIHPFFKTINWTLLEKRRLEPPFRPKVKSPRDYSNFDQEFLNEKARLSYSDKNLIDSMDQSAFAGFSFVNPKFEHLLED", "UniProt P57058, sequence (whole entry, looked up)": "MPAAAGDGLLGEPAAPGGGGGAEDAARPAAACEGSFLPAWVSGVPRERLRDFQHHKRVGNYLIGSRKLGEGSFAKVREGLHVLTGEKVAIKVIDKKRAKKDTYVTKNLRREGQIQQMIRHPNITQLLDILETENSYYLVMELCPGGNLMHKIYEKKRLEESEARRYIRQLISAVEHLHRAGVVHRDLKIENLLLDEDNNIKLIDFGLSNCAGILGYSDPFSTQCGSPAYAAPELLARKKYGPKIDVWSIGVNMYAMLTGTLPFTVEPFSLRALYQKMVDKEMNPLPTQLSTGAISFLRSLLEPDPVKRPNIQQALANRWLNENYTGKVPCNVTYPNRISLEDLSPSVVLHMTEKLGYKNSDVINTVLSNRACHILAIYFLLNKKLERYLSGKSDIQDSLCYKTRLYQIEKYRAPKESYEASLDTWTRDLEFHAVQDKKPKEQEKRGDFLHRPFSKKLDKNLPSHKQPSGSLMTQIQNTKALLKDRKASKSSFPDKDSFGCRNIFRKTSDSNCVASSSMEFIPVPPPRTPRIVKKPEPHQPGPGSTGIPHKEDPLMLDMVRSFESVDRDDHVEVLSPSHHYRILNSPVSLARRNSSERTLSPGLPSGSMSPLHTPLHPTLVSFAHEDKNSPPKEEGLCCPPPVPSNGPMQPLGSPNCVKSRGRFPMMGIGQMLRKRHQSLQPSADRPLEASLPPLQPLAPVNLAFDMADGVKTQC", "UniProt O94921, sequence (whole entry, looked up)": "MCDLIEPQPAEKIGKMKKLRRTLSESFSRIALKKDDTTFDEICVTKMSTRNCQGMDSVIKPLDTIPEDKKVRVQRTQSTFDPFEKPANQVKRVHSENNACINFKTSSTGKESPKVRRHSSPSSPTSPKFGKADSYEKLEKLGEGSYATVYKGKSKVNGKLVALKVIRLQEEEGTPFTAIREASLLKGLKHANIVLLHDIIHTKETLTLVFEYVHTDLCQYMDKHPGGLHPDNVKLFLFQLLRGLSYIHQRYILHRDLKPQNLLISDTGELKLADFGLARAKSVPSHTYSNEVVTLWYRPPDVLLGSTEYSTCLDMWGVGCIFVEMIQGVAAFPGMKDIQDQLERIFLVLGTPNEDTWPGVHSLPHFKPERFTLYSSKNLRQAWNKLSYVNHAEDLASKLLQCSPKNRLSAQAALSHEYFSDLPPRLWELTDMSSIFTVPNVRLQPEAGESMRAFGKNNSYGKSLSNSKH", "UniProt P36507, sequence (whole entry, looked up)": "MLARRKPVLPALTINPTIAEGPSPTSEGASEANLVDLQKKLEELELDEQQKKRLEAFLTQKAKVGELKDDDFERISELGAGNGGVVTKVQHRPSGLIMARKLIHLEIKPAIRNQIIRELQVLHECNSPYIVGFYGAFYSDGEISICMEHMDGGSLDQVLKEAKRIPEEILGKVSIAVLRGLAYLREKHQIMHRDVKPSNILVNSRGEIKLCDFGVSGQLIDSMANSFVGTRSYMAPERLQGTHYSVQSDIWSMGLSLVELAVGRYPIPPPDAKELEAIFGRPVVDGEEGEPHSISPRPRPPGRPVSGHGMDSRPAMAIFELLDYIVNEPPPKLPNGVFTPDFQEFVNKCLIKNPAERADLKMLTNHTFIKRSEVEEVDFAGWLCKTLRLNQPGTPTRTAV"}
{"data": "Sample 1", "Structure (SMILES)": "CC(C)(C(=O)O)[C@H](NC(=O)Cc1cccc(I)c1)c1ccc2oc(=O)[nH]c2c1", "technique": "Incucyte 3D growth", "concentration": "30 µM", "reading": "higher = more growth"}
{"cell line": "A375", "time": "480.52 h", "spheroid area": "1.61e+08 a.u. and 1.59e+08 a.u. and 1.52e+08 a.u. and 1.48e+08 a.u. and 1.4e+08 a.u. and 1.77e+08 a.u."}
{"cell line": "IPC-298", "time": "210 h", "spheroid area": "2.87e+07 a.u. and 3.77e+07 a.u. and 2.68e+07 a.u. and 3.18e+07 a.u. and 2.35e+07 a.u."}
{"cell line": "IPC-298", "time": "120 h", "spheroid area": "2.74e+07 a.u. and 2.87e+07 a.u. and 1.98e+07 a.u. and 2.71e+07 a.u. and 3.19e+07 a.u. and 2.43e+07 a.u."}
{"cell line": "NCI-H358", "time": "258 h", "spheroid area": "1.15e+07 a.u. and 8.98e+06 a.u. and 1.02e+07 a.u. and 1.12e+07 a.u. and 1.03e+07 a.u."}
{"cell line": "IPC-298", "time": "276 h", "spheroid area": "2.63e+07 a.u. and 4.63e+07 a.u. and 4.05e+07 a.u. and 2.62e+07 a.u. and 3.24e+07 a.u. and 3.51e+07 a.u."}
{"data": "Sample 2", "technique": "PRP chromatography", "notes": "linear fit, 1 mL"}
{"Structure (SMILES)": "CC(C)C[C@@H]1NC(=O)[C@H](C)NC(=O)[C@@H](CC(C)C)NC(=O)[C@@H](CCC(=O)N2CCCC2)NC(=O)[C@H](CC(C)C)NC(=O)[C@@H](CC(C)C)NC(=O)[C@H](CC(C)C)NC1=O", "logD 1,9-decadiene/water [log units]": 0.0587}
{"Structure (SMILES)": "CC(C)C[C@@H]1NC(=O)[C@H](C)NC(=O)[C@H](CCC(=O)N2CCCC2)NC(=O)[C@H](C)NC(=O)[C@H](CC(C)C)NC(=O)[C@H](CC(C)C)NC(=O)[C@H](CC(C)C)NC1=O", "logD 1,9-decadiene/water [log units]": -1.43}
{"Structure (SMILES)": "CC(C)C[C@@H]1NC(=O)[C@H](CC(C)C)NC(=O)[C@@H](CC(C)C)NC(=O)[C@H](C(C)C)NC(=O)[C@H](C(C)C)NC(=O)[C@H](Cc2cscn2)NC(=O)[C@H](C)NC1=O", "logD 1,9-decadiene/water [log units]": -1.43}
{"Structure (SMILES)": "CC(C)C[C@@H]1NC(=O)[C@H](CC(C)C)NC(=O)[C@@H](CC(C)C)NC(=O)[C@@H](C)NC(=O)[C@H](C(C)C)NC(=O)[C@H](C)NC(=O)[C@H](C)NC1=O", "logD 1,9-decadiene/water [log units]": -2.32}
{"Structure (SMILES)": "CC(C)C[C@@H]1NC(=O)[C@H](C(C)C)NC(=O)[C@H](C)NC(=O)[C@@H](CC(C)C)NC(=O)[C@@H](CCC(=O)N2CCCC2)NC(=O)[C@H](CC(C)C)NC(=O)[C@@H](CC(C)C)NC1=O", "logD 1,9-decadiene/water [log units]": -1.55}
{"Structure (SMILES)": "CC(C)C[C@@H]1NC(=O)[C@H](CC(C)C)NC(=O)[C@@H](CC(C)C)NC(=O)[C@H](C(C)C)NC(=O)[C@@H](Cc2cscn2)NC(=O)[C@@H](CC(C)C)NC(=O)[C@H](C)NC1=O", "logD 1,9-decadiene/water [log units]": -0.619}
{"Structure (SMILES)": "CC(C)C[C@@H]1NC(=O)[C@H](CC(C)C)NC(=O)[C@@H](CC(C)C)NC(=O)[C@H](CC(C)C)NC(=O)[C@@H](CCC(=O)N2CCCC2)NC(=O)[C@H](Cc2cscn2)NC(=O)[C@H](C)NC1=O", "logD 1,9-decadiene/water [log units]": -1.33}
{"data": "Sample 3", "species": "human", "matrix": "microsomes or S9", "concentration": "2 µM", "time": "0.5 h"}
{"SMILES": "O=C(Cn1cc(C(=O)N2CCN(C3CCCC3)CC2)ccc1=O)Nc1nccs1", "remaining compound [%]": 92}
{"SMILES": "Cc1c(C)n2c3c(=O)[nH]c(=O)n(C)c3nc2n1CCN(C)C", "remaining compound [%]": 99.8}
{"SMILES": "O=c1c2ccccc2[se]n1-c1ccc(S(=O)(=O)Nc2ccccn2)cc1", "remaining compound [%]": 44}
{"SMILES": "CNCc1cc(N(C)C)nc(C2CCCN2S(=O)(=O)c2ccc3c(c2)CC(=O)N3C)n1 (stereo not shown)", "remaining compound [%]": 97.4}
{"SMILES": "Cc1nnc(SCc2nc(N)nc(Nc3ccc4ccccc4c3)n2)s1", "remaining compound [%]": 10.5}
{"SMILES": "OCCN(CCO)c1ncnc2c1oc1ccc(Cl)cc12", "remaining compound [%]": 67.7}
{"data": "Sample 4", "Structure (SMILES)": "COc1ccc2[nH]c3c4[nH]c5ccc(OC)cc5c4c4c(c3c2c1)C(=O)NC4=O", "observed": "binding", "concentration": "1 µM"}
{"target": "MAP/microtubule affinity-regulating kinase 4 (MARK4, Homo sapiens, UniProt Q96L34)", "remaining binding": "100%"}
{"target": "Ephrin type-A receptor 7 (EPHA7, Homo sapiens, UniProt Q15375)", "technique": "competition with immobilised ligand", "remaining binding": "86%"}
{"target": "Serine/threonine-protein kinase PAK 6 (PAK6, Homo sapiens, UniProt Q9NQU5)", "remaining binding": "100%"}
{"target": "Serine/threonine-protein kinase Chk2 (CHEK2, Homo sapiens, UniProt O96017)", "remaining binding": "1.7%"}
{"target": "Myosin light chain kinase family member 4 (MYLK4, Homo sapiens, UniProt Q86YV6)", "remaining binding": "49%"}
{"target": "Serine/threonine-protein kinase OSR1 (OXSR1, Homo sapiens, UniProt O95747)", "remaining binding": "100%"}
{"target": "Phosphatidylinositol 4-kinase beta (PI4KB, Homo sapiens, UniProt Q9UBF8)", "remaining binding": "100%"}
{"target": "Protein kinase C delta type (PRKCD, Homo sapiens, UniProt Q05655)", "remaining binding": "93%"}
{"target": "Epidermal growth factor receptor (EGFR, Homo sapiens, UniProt P00533)", "technique": "competition with immobilised ligand", "remaining binding": "51%"}
{"data": "Sample 5", "SMILES": "COc1ccc2c(c1)O[C@H](c1ccc(OC)c(OC)c1)C[C@@H]2NC(=O)C1(c2ccc3c(c2)OC(F)(F)O3)CC1", "observed": "cell-free assay", "technique": "competition with immobilised ligand", "concentration": "1 µM"}
{"target": "Calcium/calmodulin-dependent protein kinase type 1G (CAMK1G, Homo sapiens, UniProt Q96NX5)", "remaining binding": "100%"}
{"target": "Serine/threonine-protein kinase DCLK3 (DCLK3, Homo sapiens, UniProt Q9C098)", "remaining binding": "100%"}
{"target": "Dual specificity mitogen-activated protein kinase kinase 1 (MAP2K1, Homo sapiens, UniProt Q02750)", "remaining binding": "100%"}
{"target": "Death-associated protein kinase 1 (DAPK1, Homo sapiens, UniProt P53355)", "remaining binding": "100%"}
{"target": "Fibroblast growth factor receptor 4 (FGFR4, Homo sapiens, UniProt P22455)", "remaining binding": "100%"}
{"target": "Hormonally up-regulated neu tumor-associated kinase (HUNK, Homo sapiens, UniProt P57058)", "remaining binding": "72%"}
{"target": "Ephrin type-A receptor 4 (EPHA4, Homo sapiens, UniProt P54764)", "remaining binding": "91%"}
{"target": "Serine/threonine-protein kinase 16 (STK16, Homo sapiens, UniProt O75716)", "remaining binding": "100%"}
{"target": "eIF-2-alpha kinase GCN2, C-terminal kinase domain (EIF2AK4, Homo sapiens, UniProt Q9P2K8, S808G)", "remaining binding": "97%"}
{"target": "Cyclin-dependent kinase 14 (CDK14, Homo sapiens, UniProt O94921)", "remaining binding": "98%"}
{"target": "Serine/threonine-protein kinase Sgk3 (SGK3, Homo sapiens, UniProt Q96BR1)", "remaining binding": "100%"}
{"target": "Serine/threonine-protein kinase WNK3 (WNK3, Homo sapiens, UniProt Q9BYP7)", "remaining binding": "100%"}
{"target": "Epidermal growth factor receptor (EGFR, Homo sapiens, UniProt P00533, del747-752/P753S)", "remaining binding": "59%"}
{"target": "Dual specificity mitogen-activated protein kinase kinase 2 (MAP2K2, Homo sapiens, UniProt P36507)", "remaining binding": "100%"}
{"target": "Ephrin type-A receptor 7 (EPHA7, Homo sapiens, UniProt Q15375)", "remaining binding": "100%"}
{"target": "Dual specificity protein kinase CLK3 (CLK3, Homo sapiens, UniProt P49761)", "remaining binding": "100%"}
{"target": "Dual specificity mitogen-activated protein kinase kinase 6 (MAP2K6, Homo sapiens, UniProt P52564)", "remaining binding": "100%"}
{"target": "Serine/threonine-protein kinase NLK (NLK, Homo sapiens, UniProt Q9UBE8)", "remaining binding": "100%"}
{"target": "Receptor-interacting serine/threonine-protein kinase 1 (RIPK1, Homo sapiens, UniProt Q13546)", "remaining binding": "100%"}
{"target": "NT-3 growth factor receptor (NTRK3, Homo sapiens, UniProt Q16288)", "remaining binding": "92%"}
{"target": "Casein kinase I isoform gamma-2 (CSNK1G2, Homo sapiens, UniProt P78368)", "remaining binding": "95%"}
{"target": "Calcium/calmodulin-dependent protein kinase type II subunit gamma (CAMK2G, Homo sapiens, UniProt Q13555)", "remaining binding": "100%"}
{"note": "Some of these lines once more (sample 1):"}
{"cell line": "A375", "time": "480.52 h", "spheroid area": "1.61e+08 a.u. and 1.59e+08 a.u. and 1.52e+08 a.u. and 1.48e+08 a.u. and 1.4e+08 a.u. and 1.77e+08 a.u."}
{"cell line": "IPC-298", "time": "210 h", "spheroid area": "2.87e+07 a.u. and 3.77e+07 a.u. and 2.68e+07 a.u. and 3.18e+07 a.u. and 2.35e+07 a.u."}
{"cell line": "IPC-298", "time": "120 h", "spheroid area": "2.74e+07 a.u. and 2.87e+07 a.u. and 1.98e+07 a.u. and 2.71e+07 a.u. and 3.19e+07 a.u. and 2.43e+07 a.u."}
{"cell line": "NCI-H358", "time": "258 h", "spheroid area": "1.15e+07 a.u. and 8.98e+06 a.u. and 1.02e+07 a.u. and 1.12e+07 a.u. and 1.03e+07 a.u."}
{"cell line": "IPC-298", "time": "276 h", "spheroid area": "2.63e+07 a.u. and 4.63e+07 a.u. and 4.05e+07 a.u. and 2.62e+07 a.u. and 3.24e+07 a.u. and 3.51e+07 a.u."}
